{"data": "Measured values gathered from unrelated publications", "TDP1": "Tyrosyl-DNA phosphodiesterase 1 (TDP1, Homo sapiens, UniProt Q9NUW8)", "Uncharacterized protein": "Uncharacterized protein (Trypanosoma brucei brucei, UniProt Q386Q8)", "note": "Protocols differ between the studies behind these lines. ± marks the error that the study gave.", "UniProt Q9NUW8, sequence (whole entry, looked up)": "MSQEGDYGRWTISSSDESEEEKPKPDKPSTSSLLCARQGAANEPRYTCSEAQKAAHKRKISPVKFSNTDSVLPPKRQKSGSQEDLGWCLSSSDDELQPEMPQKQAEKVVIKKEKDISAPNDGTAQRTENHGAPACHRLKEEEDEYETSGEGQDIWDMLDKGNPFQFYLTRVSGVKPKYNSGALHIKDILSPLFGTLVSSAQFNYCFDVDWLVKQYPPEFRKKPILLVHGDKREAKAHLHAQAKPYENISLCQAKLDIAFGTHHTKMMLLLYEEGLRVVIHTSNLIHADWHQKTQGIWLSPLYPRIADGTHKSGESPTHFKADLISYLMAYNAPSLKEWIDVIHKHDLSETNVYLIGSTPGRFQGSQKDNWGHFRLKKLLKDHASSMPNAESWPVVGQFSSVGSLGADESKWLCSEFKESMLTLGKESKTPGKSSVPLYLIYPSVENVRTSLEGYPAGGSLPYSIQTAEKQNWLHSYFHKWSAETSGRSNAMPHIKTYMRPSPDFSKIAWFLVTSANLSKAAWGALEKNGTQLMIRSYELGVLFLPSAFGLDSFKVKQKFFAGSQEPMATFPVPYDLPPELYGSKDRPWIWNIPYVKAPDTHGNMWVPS", "UniProt P0A7A9, sequence (whole entry, looked up)": "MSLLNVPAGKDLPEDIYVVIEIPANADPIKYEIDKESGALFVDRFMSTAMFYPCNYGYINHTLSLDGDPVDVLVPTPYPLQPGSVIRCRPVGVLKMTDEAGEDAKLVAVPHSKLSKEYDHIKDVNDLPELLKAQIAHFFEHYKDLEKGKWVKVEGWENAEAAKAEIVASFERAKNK", "UniProt Q92847, sequence (whole entry, unmodified, looked up)": "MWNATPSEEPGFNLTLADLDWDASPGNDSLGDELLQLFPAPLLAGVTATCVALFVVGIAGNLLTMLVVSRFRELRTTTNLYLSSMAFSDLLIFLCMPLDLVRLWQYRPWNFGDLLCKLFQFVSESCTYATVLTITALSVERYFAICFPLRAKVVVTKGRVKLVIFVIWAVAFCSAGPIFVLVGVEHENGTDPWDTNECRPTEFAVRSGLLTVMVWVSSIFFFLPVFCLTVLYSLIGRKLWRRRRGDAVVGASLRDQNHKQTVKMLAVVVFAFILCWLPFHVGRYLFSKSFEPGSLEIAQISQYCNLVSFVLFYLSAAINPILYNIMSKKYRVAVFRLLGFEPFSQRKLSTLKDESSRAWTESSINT", "UniProt O09047, sequence (whole entry, looked up)": "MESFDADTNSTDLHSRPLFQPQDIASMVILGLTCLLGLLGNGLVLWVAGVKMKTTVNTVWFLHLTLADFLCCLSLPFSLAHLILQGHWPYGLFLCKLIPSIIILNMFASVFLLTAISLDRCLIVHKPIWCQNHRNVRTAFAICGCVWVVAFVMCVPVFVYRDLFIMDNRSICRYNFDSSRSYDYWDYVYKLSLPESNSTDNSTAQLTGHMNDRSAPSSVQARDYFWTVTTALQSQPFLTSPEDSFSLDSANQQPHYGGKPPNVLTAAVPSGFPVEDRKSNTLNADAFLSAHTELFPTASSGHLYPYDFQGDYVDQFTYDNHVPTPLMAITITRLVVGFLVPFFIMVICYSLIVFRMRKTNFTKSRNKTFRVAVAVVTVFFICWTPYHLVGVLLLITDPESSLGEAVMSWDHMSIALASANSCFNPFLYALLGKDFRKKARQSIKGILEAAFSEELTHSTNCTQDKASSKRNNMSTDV", "UniProt P41146, sequence (whole entry, unmodified, looked up)": "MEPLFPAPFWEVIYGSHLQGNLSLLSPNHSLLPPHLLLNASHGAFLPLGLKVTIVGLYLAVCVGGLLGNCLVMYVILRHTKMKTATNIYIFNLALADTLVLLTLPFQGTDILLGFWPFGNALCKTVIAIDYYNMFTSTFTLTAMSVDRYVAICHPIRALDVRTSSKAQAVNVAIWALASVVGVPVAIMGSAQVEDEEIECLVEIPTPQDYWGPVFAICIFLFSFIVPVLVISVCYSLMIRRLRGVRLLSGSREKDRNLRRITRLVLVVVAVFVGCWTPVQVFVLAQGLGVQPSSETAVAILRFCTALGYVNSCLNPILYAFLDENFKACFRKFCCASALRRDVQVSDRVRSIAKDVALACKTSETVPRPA", "UniProt Q13188, sequence (whole entry, looked up)": "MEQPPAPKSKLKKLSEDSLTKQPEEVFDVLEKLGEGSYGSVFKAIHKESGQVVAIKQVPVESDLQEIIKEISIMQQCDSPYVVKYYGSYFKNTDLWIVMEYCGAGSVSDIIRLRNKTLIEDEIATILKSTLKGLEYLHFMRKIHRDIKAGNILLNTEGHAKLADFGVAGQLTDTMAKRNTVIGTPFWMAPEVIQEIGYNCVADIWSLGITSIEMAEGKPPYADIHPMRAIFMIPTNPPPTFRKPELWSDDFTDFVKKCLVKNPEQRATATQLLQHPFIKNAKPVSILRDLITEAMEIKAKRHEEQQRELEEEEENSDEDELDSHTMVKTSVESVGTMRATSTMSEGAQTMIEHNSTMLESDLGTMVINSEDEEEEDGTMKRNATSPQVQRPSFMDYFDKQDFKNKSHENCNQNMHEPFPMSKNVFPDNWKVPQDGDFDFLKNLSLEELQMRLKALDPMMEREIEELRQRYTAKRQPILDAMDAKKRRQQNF", "UniProt Q15391, sequence (whole entry, unmodified, looked up)": "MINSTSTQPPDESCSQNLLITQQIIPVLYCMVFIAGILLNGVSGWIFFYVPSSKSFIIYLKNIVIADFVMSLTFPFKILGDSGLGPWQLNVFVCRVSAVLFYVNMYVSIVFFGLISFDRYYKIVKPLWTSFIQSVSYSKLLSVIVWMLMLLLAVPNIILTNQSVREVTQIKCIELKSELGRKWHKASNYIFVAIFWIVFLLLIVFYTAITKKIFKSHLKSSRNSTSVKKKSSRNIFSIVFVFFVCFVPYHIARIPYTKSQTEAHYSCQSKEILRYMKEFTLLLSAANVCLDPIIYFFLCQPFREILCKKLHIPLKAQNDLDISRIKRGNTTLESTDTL", "UniProt Q9UKP6, sequence (whole entry, looked up)": "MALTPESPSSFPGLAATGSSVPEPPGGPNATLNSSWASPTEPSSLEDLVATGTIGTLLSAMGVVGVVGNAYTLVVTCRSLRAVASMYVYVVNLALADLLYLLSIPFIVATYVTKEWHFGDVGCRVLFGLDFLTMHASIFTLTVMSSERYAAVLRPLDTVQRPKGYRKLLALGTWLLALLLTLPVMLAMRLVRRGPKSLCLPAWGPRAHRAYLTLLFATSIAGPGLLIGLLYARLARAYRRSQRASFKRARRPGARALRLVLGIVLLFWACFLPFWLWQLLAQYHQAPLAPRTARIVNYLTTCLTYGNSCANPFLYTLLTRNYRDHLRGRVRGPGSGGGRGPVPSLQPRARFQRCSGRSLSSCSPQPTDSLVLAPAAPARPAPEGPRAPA"}
{"Compound": "CN(C)/C=C/c1c(C=NOCc2ccc(-c3nc4cc(-c5ccccc5)ccn4c3Nc3ccc(C(=O)O)cc3)cc2)c2cc([N+](=O)[O-])ccc2n1C", "target": "TDP1", "test": "enzyme activity, inhibitor", "conditions": "100 µM", "endpoint": "inhibition", "result": "97%"}
{"Compound": "O=c1ccn([C@@H]2O[C@H](COP(=O)(O)CP(=O)(O)O)[C@@H](O)[C@H]2O)c(=S)[nH]1", "target": "P2Y purinoceptor 14 (P2RY14, Homo sapiens, UniProt Q15391, V93A)", "test": "calcium mobilisation, agonist", "system": "cells with Gαqi5", "conditions": "receptor mutant V93A", "endpoint": "EC50", "result": "0.214 ± 0.061 µM"}
{"Compound": "Cc1nn(-c2cccc(N)c2)c(=O)c2cnc(Nc3ccc(N4CCNCC4)cc3)nc12", "target": "Serine/threonine-protein kinase 3 (STK3, Homo sapiens, UniProt Q13188)", "test": "enzyme activity, inhibitor", "endpoint": "IC50", "result": "> 10 µM"}
{"Compound": "O=C(NCCCN1CCC2(CC1)OCc1ccccc12)C1CCCN1Cc1ccccc1 (centres unmarked)", "target": "Nociceptin receptor (OPRL1, Homo sapiens, UniProt P41146, Y309A)", "endpoint": "Ki", "result": "> 10 µM"}
{"Compound": "C[N+]1(Cc2ccccc2)CCN(CCCN2c3ccccc3Sc3ccc(Cl)cc32)CC1", "target": "Uncharacterized protein", "test": "enzyme activity, inhibitor, coupled colorimetric", "conditions": "added: E. coli pyrophosphatase coupling", "endpoint": "IC50", "result": "92.7 µM"}
{"Compound": "COc1ccc(C(=O)c2c(C(=O)NCCCN(C)C)oc3ccc(Cl)cc3c2=O)cc1OC", "target": "Growth hormone secretagogue receptor type 1 (GHSR, Homo sapiens, UniProt Q92847, N305A)", "test": "intracellular Ca2+, agonist", "system": "HEK293T transiently transfected", "endpoint": "EC50", "result": "0.589 µM"}
{"Compound": "CNc1sc(C(=O)c2ccc(OC)cc2)c(N)c1C#N", "target": "Inorganic pyrophosphatase (ppa, Escherichia coli, UniProt P0A7A9)", "test": "inhibitor, counter-screen, coupling enzyme alone", "endpoint": "IC50", "result": "64.1 µM"}
{"Compound": "CC(C)C[C@H](NC(=O)[C@H](C)NC(=O)[C@H](CO)NC(=O)[C@@H]1CCCN1C(=O)[C@@H]1CCCN1C(=O)[C@H](CCC(N)=O)NC(=O)[C@H](CC(C)C)NC(=O)[C@@H](N)[C@@H](C)O)C(=O)N[C@@H](CCCNC(=N)N)C(=O)N[C@@H](CCCNC(=N)N)C(=O)N[C@@H](CCCNC(=N)N)C(=O)N[C@@H](Cc1c[nH]cn1)C(=O)N[C@@H](Cc1ccc(O)cc1)C(=O)N[C@@H](Cc1c[nH]cn1)C(=O)N[C@@H](Cc1c[nH]cn1)C(=O)N[C@@H](C)C(=O)N[C@@H](CC(C)C)C(=O)N1CCC[C@H]1C(=O)N1CCC[C@H]1C(=O)N[C@@H](CO)C(=O)N[C@@H](CCCNC(=N)N)C(=O)O", "target": "C3a anaphylatoxin chemotactic receptor (C3ar1, Mus musculus, UniProt O09047)", "test": "cAMP response, agonist, GloSensor", "endpoint": "EC50", "result": "0.135 µM"}
{"Compound": "CC(C)[C@H](NC(=O)[C@@H]1CSSC(C)(C)[C@H](NC(=O)[C@@H](N)CC(=O)O)C(=O)N[C@@H](Cc2ccccc2)C(=O)N[C@H](Cc2c[nH]c3ccccc23)C(=O)N[C@@H](CCCN)C(=O)N[C@@H](Cc2ccc(O)cc2)C(=O)N1)C(=O)O", "target": "Urotensin-2 receptor (UTS2R, Homo sapiens, UniProt Q9UKP6)", "test": "calcium signal, agonist, fluorescence", "endpoint": "EC50", "result": "0.00867 µM"}
{"Compound": "COC(=O)c1ccc(-c2cccc(C=NOCc3ccc4nc(-c5ccccc5)c(Nc5ccc(C(=O)O)cc5)n4c3)n2)cc1 (mixture of isomers)", "target": "TDP1", "test": "enzyme activity, inhibitor", "conditions": "100 µM, unpurified compound", "endpoint": "inhibition", "result": "42.2%"}
{"Compound": "CCNc1sc(C(C)=O)c(N)c1C#N", "target": "Uncharacterized protein", "test": "enzyme activity, inhibitor, coupled colorimetric", "conditions": "added: E. coli pyrophosphatase coupling", "endpoint": "IC50", "result": "90.7 µM"}
{"note": "Some of these lines once more:"}
{"Compound": "COc1ccc(C(=O)c2c(C(=O)NCCCN(C)C)oc3ccc(Cl)cc3c2=O)cc1OC", "target": "Growth hormone secretagogue receptor type 1 (GHSR, Homo sapiens, UniProt Q92847, N305A)", "test": "intracellular Ca2+, agonist", "system": "HEK293T transiently transfected", "endpoint": "EC50", "result": "0.589 µM"}
